Measurements gathered from unrelated publications.
Protocols differ between the studies behind these lines. Numbers after ± are the reported error.
rep main protease: Replicase polyprotein 1ab, main protease (rep, Severe acute respiratory syndrome coronavirus 2, UniProt P0DTD1)

| Compound | target or system | assay | test system | conditions | quantity | value |
| --- | --- | --- | --- | --- | --- | --- |
| CCC(CC)COC(=O)[C@H](C)N[P@](=O)(OC[C@H]1O[C@@](C#N)(c2ccc3c(N)ncnn23)[C@H](O)[C@@H]1O)Oc1ccccc1 | Severe acute respiratory syndrome coronavirus 2 | viral replication, inhibitor | Vero C1008 |  | EC50 | 2.5 µM |
| Nc1ncnc2c([C@@H]3N[C@H](CO)[C@@H](O)[C@H]3O)c[nH]c12 | Marburg virus | viral replication, antibody staining | HeLa, Musoke | 25 µM, 24 h | infected cells | 4.6% |
| CC(CN(C)C)CN1c2ccccc2CCc2ccccc21 (centres unmarked) | Severe acute respiratory syndrome coronavirus 2 | viral replication | Vero C1008, USA_WA1/2020 | 72 h | EC50 | 20.5 µM |
| O[C@H]1[C@H]2c3cc4c(cc3CN3CCC(=C[C@@H]1O)[C@H]23)OCO4 | Severe acute respiratory syndrome coronavirus 2 | viral replication, inhibitor, qPCR | Vero C1008 | 24 h | EC50 | 0.439 µM |
| CC(C)(C)OC(=O)N[C@H]1CCCCC/C=C\[C@@H]2C[C@@]2(C(=O)NS(=O)(=O)C2CC2)NC(=O)[C@@H]2C[C@@H](OC(=O)N3Cc4cccc(F)c4C3)CN2C1=O | Severe acute respiratory syndrome coronavirus 2 | viral replication, inhibitor | Vero C1008 |  | EC50 | 87 µM |
| CC(C)N(CCC(=O)c1ccc2ccccc2c1)Cc1ccccc1 | Severe acute respiratory syndrome coronavirus 2 | antiviral activity | Huh-7 | 96 h | EC50 | > 100 µM |
| C[C@H](c1cccc2ccccc12)N1CCC(C(=O)NCc2cccc(-c3cn(Cc4nnc5c(F)cccn45)nn3)c2)CC1 | Severe acute respiratory syndrome coronavirus 2 | viral replication | hACE2-HeLa | 48 h | EC50 | 0.38 µM |
| COC(=O)c1c(NC(=O)c2cc3ccccc3o2)sc(C)c1C | Severe acute respiratory syndrome coronavirus 2 | antiviral activity | Huh-7 | 96 h | EC50 | > 100 µM |
| CC[C@H](C)[C@H](NC(=O)[C@H](CC(C)C)NC(=O)[C@H](Cc1c[nH]c2ccccc12)NC(=O)[C@H](CCC(N)=O)NC(=O)[C@@H](NC(=O)[C@H](Cc1ccccc1)NC(=O)[C@H](C)NC(=O)[C@H](CCCCNC(=O)COCCOCCNC(=O)COCCOCCNC(=O)CC[C@H](NC(=O)CCCCCCCCCCCCCCCCCCC(=O)O)C(=O)O)NC(=O)[C@H](CCC(N)=O)NC(=O)[C@H](C)NC(=O)[C@@H](NC(=O)[C@H](CCCCN)NC(=O)[C@H](CC(=O)O)NC(=O)[C@H](CC(C)C)NC(=O)C(C)(C)NC(=O)[C@@H](NC(=O)[C@H](CO)NC(=O)[C@H](Cc1ccc(O)cc1)NC(=O)[C@H](CC(=O)O)NC(=O)[C@H](CO)NC(=O)[C@@H](NC(=O)[C@H](Cc1ccccc1)NC(=O)[C@@H](NC(=O)CNC(=O)[C@H](CCC(=O)O)NC(=O)C(C)(C)NC(=O)[C@@H](N)Cc1ccc(O)cc1)[C@@H](C)O)[C@@H](C)O)[C@@H](C)CC)[C@@H](C)CC)C(C)C)C(=O)N[C@@H](C)C(=O)NCC(=O)NCC(=O)N1CCC[C@H]1C(=O)N[C@@H](CO)C(=O)N[C@@H](CO)C(=O)NCC(=O)N[C@@H](C)C(=O)N1CCC[C@H]1C(=O)N1CCC[C@H]1C(=O)N1CCC[C@H]1C(=O)N[C@@H](CO)C(N)=O |  |  | healthy subjects, serum | 0.5 mg, day 29, multiple ascending dose | serum ALT | 17 ± 5.1 U/L |
| O=c1c(O)c(-c2cc(O)c(O)c(O)c2)oc2cc(O)cc(O)c12 | Severe acute respiratory syndrome coronavirus 2 | antiviral activity | Huh-7 | 96 h | EC50 | > 100 µM |
| Cc1c(O)cccc1C(=O)N[C@@H](CSc1ccccc1)[C@H](O)CN1C[C@H]2CCCC[C@H]2C[C@H]1C(=O)NC(C)(C)C | Severe acute respiratory syndrome coronavirus 2 | cytopathic effect, inhibitor |  |  | EC50 | 4.2 µM |
| C=C[C@@H]1C[C@]1(NC(=O)[C@@H]1C[C@@H](Oc2ncc(OC)c3ccc(Cl)cc23)CN1C(=O)[C@@H](NC(=O)OC(C)(C)C)C(C)(C)C)C(=O)NS(=O)(=O)C1CC1 | Severe acute respiratory syndrome coronavirus 2 | viral replication, inhibitor | Vero C1008 |  | EC50 | 72 µM |
| O=C(c1cccc(CF)c1)N1CCCCC[C@@H](Nc2nc(-c3cccnc3)nc3c2CCC3)C1 | rep main protease | enzyme activity, inhibitor |  | 5 µM, run 2 | inhibition | 12.4% |
| Cn1cnc(Cn2c(=O)[nH]/c(=N\c3cc4cn(C)nc4cc3Cl)n(Cc3cc(F)c(F)cc3F)c2=O)n1 |  |  | human, mild renal impairment, plasma | oral, 375 mg single dose | MRT | 80.8 h |
| N#C[C@@]1(c2ccc3c(N)ncnn23)O[C@H](CO)[C@@H](O)[C@H]1O | Severe acute respiratory syndrome coronavirus 2 | viral replication, inhibitor, qPCR | human | 48 h | EC50 | 0.74 µM |
| C=C[C@@H]1C[C@]1(NC(=O)[C@@H]1C[C@@H](Oc2cc(-c3csc(NC(=O)C(C)C)n3)nc3c(Br)c(OC)ccc23)CN1C(=O)[C@@H](NC(=O)OC1CCCC1)C(C)(C)C)C(=O)O | Severe acute respiratory syndrome coronavirus 2 | viral replication, inhibitor | Vero C1008 |  | EC50 | 23 µM |
| COc1ccc2cc1Oc1ccc(cc1)C[C@H]1c3c(cc4c(c3Oc3cc5c(cc3OC)CCN(C)[C@@H]5C2)OCO4)CCN1C | Severe acute respiratory syndrome coronavirus 2 | viral replication | Vero C1008, USA_WA1/2020 | 72 h | EC50 | 1.41 µM |
| CCN(CCO)CCCC(C)Nc1ccnc2cc(Cl)ccc12 (centres unmarked) | Severe acute respiratory syndrome coronavirus 2 | cytopathic effect, inhibitor |  |  | EC50 | 17.7 µM |
| CC[C@@H]1C[C@]1(NC(=O)[C@@H]1C[C@@H]2CN1C(=O)[C@H](C(C)(C)C)NC(=O)OCC(C)(C)CCCCc1cccc3c1CN(C3)C(=O)O2)C(=O)NS(=O)(=O)C1CC1 | Severe acute respiratory syndrome coronavirus 2 | viral replication, inhibitor | Vero C1008 |  | EC50 | 51 µM |
| Nc1ncnc2c1ncn2[C@@H]1O[C@H](C[C@@H](N)CC[C@H](N)C(=O)O)[C@@H](O)[C@H]1O | Severe acute respiratory syndrome coronavirus 2 | antiviral activity | Huh-7 | 96 h | EC50 | > 100 µM |
| CCC(CC)COC(=O)[C@H](C)N[P@](=O)(OC[C@H]1O[C@@](C#N)(c2ccc3c(N)ncnn23)[C@H](O)[C@@H]1O)Oc1ccccc1 | Severe acute respiratory syndrome coronavirus 2 | viral replication, inhibitor, qPCR | human | 48 h | EC50 | 0.14 µM |
| Cc1cccc(/C=N/Nc2cc(N3CCOCC3)nc(OCCc3ccccn3)n2)c1 | Severe acute respiratory syndrome coronavirus 2 | viral replication, inhibitor, luciferase | Calu-3 |  | EC50 | 3.06 µM |
| COc1ccc2c(O[C@@H]3C[C@H]4C(=O)N[C@]5(C(=O)NS(=O)(=O)C6CC6)C[C@H]5/C=C\CCCCN(C)C(=O)[C@@H]4C3)cc(-c3nc(C(C)C)cs3)nc2c1C | rep main protease | reporter gene (Gaussia luciferase), inhibitor |  | 20 µM | inhibition | -4.31% |
| Cc1cc(-c2ccc(/N=N/c3ccc4c(S(=O)(=O)O)cc(S(=O)(=O)O)c(N)c4c3O)c(C)c2)ccc1/N=N/c1ccc2c(S(=O)(=O)O)cc(S(=O)(=O)O)c(N)c2c1O | Severe acute respiratory syndrome coronavirus 2 | antiviral activity | Huh-7 | 96 h | EC50 | < 50 µM |
| CC1=C[C@]23C(=O)[C@@H](C=C(CO)[C@@H](O)[C@]2(O)[C@H]1O)[C@H]1[C@@H](C[C@H]3C)C1(C)C | Severe acute respiratory syndrome coronavirus 2 | viral replication | Vero C1008, USA_WA1/2020 | 72 h | EC50 | 0.06 µM |
| CC(C)=CCc1c(O)c(CC=C(C)C)c2oc3c(O)ccc(O)c3c(=O)c2c1O | rep main protease | reporter gene (mKate2), inhibitor |  | 20 µM | inhibition | 0.17% |

A few entries again:
| Compound | target or system | assay | test system | conditions | quantity | value |
| --- | --- | --- | --- | --- | --- | --- |
| C[C@H](c1cccc2ccccc12)N1CCC(C(=O)NCc2cccc(-c3cn(Cc4nnc5c(F)cccn45)nn3)c2)CC1 | Severe acute respiratory syndrome coronavirus 2 | viral replication | hACE2-HeLa | 48 h | EC50 | 0.38 µM |
| COC(=O)c1c(NC(=O)c2cc3ccccc3o2)sc(C)c1C | Severe acute respiratory syndrome coronavirus 2 | antiviral activity | Huh-7 | 96 h | EC50 | > 100 µM |
